# Published values from different studies.
# Lines come from different studies, so protocols differ. ± gives the spread as reported.
SMILES,tested on,test,test system,conditions,how to read,endpoint,result
C=CC(=O)N1[C@H](c2ccc3c(c2)OCO3)c2[nH]c3ccccc3c2C[C@@H]1C(=O)N1CCN(C)CC1,human cyclin E1 N112C-3xFLAG:CDK2,"co-IP with TMT proteomics, measured: HNRNPK",,"concentration not given, P61978",relative to: wild type DMSO,relative co-enrichment,120%
Cc1cn(CC(=O)N(CC(=O)N[C@H]2CCC[C@@H]2N(CC(=O)N[C@H]2COC[C@@H]2N(CC(=O)N[C@H]2COC[C@@H]2N(CC(=O)N[C@H]2COC[C@@H]2N(CC(=O)NCCOCCOCC(N)=O)C(=O)Cn2cnc3c(N)ncnc32)C(=O)Cn2cc(C)c(=O)[nH]c2=O)C(=O)Cn2cnc3c(N)ncnc32)C(=O)Cn2cnc3c(=O)[nH]c(N)nc32)[C@H]2CCC[C@@H]2NC(=O)CN(C(=O)Cn2cnc3c(=O)[nH]c(N)nc32)[C@H]2CCC[C@@H]2NC(=O)CN(C(=O)Cn2cc(C)c(=O)[nH]c2=O)[C@H]2COC[C@@H]2NC(=O)CN(C(=O)Cn2cnc3c(N)ncnc32)[C@H]2COC[C@@H]2NC(=O)CN(C(=O)Cn2cnc3c(=O)[nH]c(N)nc32)[C@H]2COC[C@@H]2N)c(=O)[nH]c1=O,mismatched DNA TG,"duplex formation, UV melting",,,relative to: complementary DNA,ΔTm,-20.3 °C
Cc1[nH]nc2c1N=C(c1ccccc1Cl)c1cnc(N3CCOCC3)cc1N2,"KATP channel, hamster",radioligand binding,,10 µM,,inhibition,4%
COc1ccc(C(=O)Nc2c(-c3cccs3)nc3ccccn23)cc1,sigma receptor 2,binding,,10 µM,,inhibition,< 50%
CCCCCC(=O)NC(CC(=O)N(CC)CC)C(=O)NC(Cc1ccc(F)cc1)C(=O)NC(Cc1ccc(F)cc1F)C(=O)C1(C)CO1 (stereo not shown),"proteasome β5, Trypanosoma brucei","activity-based probe labelling, inhibitor",parasite lysate,"1 µM, 1 h preincubation, added: Me4BodipyFL-Ahx3Leu3VS",,probe labelling,inhibited
Cc1c[nH]c2nccc(-c3ccc(C(=O)N[C@@H]4c5c(F)cc(C(F)F)cc5C[C@@H]4O)cn3)c12,ROCK1/2,"MYPT1 phosphorylation, inhibitor, western blot",,,,IC50,240 nM
Nc1ncc(-c2cc(-c3cnn(CC(F)(F)F)c3)ncc2F)nc1C(=O)NC1CNCC(F)C1 (stereo not shown),PIK3C2G,KINOMEscan,,1 µM,relative to: DMSO control,remaining binding,89%
COc1c(Br)c(O)c(Br)c2c1C(=O)CC(c1ccccc1)O2 (stereo not shown),bovine serum albumin,"methylglyoxal-mediated glycation, fluorescence",,concentration not given,,inhibition,45.6 ± 4.28%
c1ccc(-c2n[nH]cc2-c2ccnc3ccccc23)nc1,BCK1 (Candida albicans),"kinase binding, MIB/MS competition",Candida albicans lysate,10 µM,relative to: DMSO,log2 fold change,-0.07
NCCOc1cc(NC(=O)c2cc(Cl)cc(C(=O)Nc3cc(OCCN)c4ccccc4n3)n2)nc2ccccc12,Bcl2 G-quadruplex DNA,FRET melting,,"1 µM, pH 7.4, added: 60 mM potassium",,ΔTm,23.1 ± 0.9 K
COC1CN([C@H]2CC[C@H]([C@@]3(C)Oc4c(Cl)cc(C(=O)NCc5c(SC)cc(C)[nH]c5=O)c(C)c4O3)CC2)C1,,"RNA-seq, measured: ZNF704","human, whole blood","dose not given, 24 h",relative to: pretreatment baseline,log2 fold change,2.96
Cc1sc2ncn(CC(=O)N3CCCC3)c(=O)c2c1-c1cccc(Br)c1,"NMDA receptor, mouse","single-channel current, outside-out patch",cortical neurons,"50 µM, added: Ca2+ 0.5 mM",,mean open time,4.2 ± 0.7 ms
O=C1CC(c2ccccc2)Oc2c(Br)c(O)c(Br)c(O)c21 (stereo not shown),bovine serum albumin,"methylglyoxal-mediated glycation, fluorescence",,concentration not given,,inhibition,46.3 ± 2.23%
C=CC(=O)Nc1cccc(Cn2ncc3cnc(Nc4cnn(CCOC)c4)nc32)c1,HIPK3 human,"binding, KINOMEscan",,100 nM,lower = stronger binding,percent of control,100%
COc1ccc(C2CC(=O)c3c(O)c(Br)c(O)c(Br)c3O2)cc1O (stereo not shown),bovine serum albumin,"methylglyoxal-mediated glycation, fluorescence",,concentration not given,,inhibition,63.3 ± 2.8%
Cc1c(C)c2cccnc2c2ncccc12.O=[N+]([O-])[O-].O=c1c(C=NN=C([S-])Nc2ccccc2)coc2ccccc12.[Cu+2],supercoiled pUC19 DNA,oxidative DNA cleavage,,"concentration not given, sodium azide 50 µM, added: ascorbic acid",,nicked circular DNA,100%
CN(Cc1cc(C2CC2)on1)C(=O)c1cccc(-c2ccc3c(c2)CCO3)c1,acetyl-CoA synthetase 1 (Aspergillus fumigatus),"enzyme activity, inhibitor, coupled pyrophosphate",,200 nM,higher is more activity,reaction rate,0.00127 a.u.
N=C(c1ccc([N+](=O)[O-])o1)N1CCC(NC(=O)c2cc(-c3ccc(F)cc3F)on2)(c2nc3ccccc3[nH]2)CC1,STING pathway,"inhibitor, immunoblot","mouse BMDM, wild type","5 µM, 1 h pretreatment, added: diABZI",,TBK1 and IRF3 phosphorylation,inhibited
NCCOc1cc(NC(=O)c2cc(OCc3cn([C@H]4O[C@@H](CO)[C@H](O)[C@@H](O)[C@@H]4O)nn3)cc(C(=O)Nc3cc(OCCN)c4ccccc4n3)n2)nc2ccccc12,Bcl2 G-quadruplex DNA,FRET melting,,"1 µM, pH 7.4, added: 60 mM potassium",,ΔTm,6.5 ± 0.3 K
N=C(NCC[C@H](NC(=O)c1noc(-c2cc(F)ccc2F)n1)c1nc2ccccc2[nH]1)c1ccc([N+](=O)[O-])o1,STING pathway,"inhibitor, RT-qPCR",mouse iBMDM,"concentration not given, 2 h, added: diABZI 500 nM",,IFNβ mRNA level,inhibited
COCC(=O)N1CCc2cc(-c3csc(NC(=O)c4cc(OC)cc(OC)c4)n3)ccc21,rat GABAA receptor central,,,"10 µM, added: muscimol",,inhibition,8%
O=C(Nc1cc(OCCN2CCCC2)c2ccccc2n1)c1cccc(C(=O)Nc2cc(OCCN3CCCC3)c3ccccc3n2)n1,Bcl2 G-quadruplex DNA,FRET melting,,"1 µM, pH 7.4, added: 60 mM potassium",,ΔTm,3.5 ± 0.4 K

# Excerpt of the above:
SMILES,tested on,test,test system,conditions,how to read,endpoint,result
COC1CN([C@H]2CC[C@H]([C@@]3(C)Oc4c(Cl)cc(C(=O)NCc5c(SC)cc(C)[nH]c5=O)c(C)c4O3)CC2)C1,,"RNA-seq, measured: ZNF704","human, whole blood","dose not given, 24 h",relative to: pretreatment baseline,log2 fold change,2.96
C=CC(=O)Nc1cccc(Cn2ncc3cnc(Nc4cnn(CCOC)c4)nc32)c1,HIPK3 human,"binding, KINOMEscan",,100 nM,lower = stronger binding,percent of control,100%
COc1ccc(C2CC(=O)c3c(O)c(Br)c(O)c(Br)c3O2)cc1O (stereo not shown),bovine serum albumin,"methylglyoxal-mediated glycation, fluorescence",,concentration not given,,inhibition,63.3 ± 2.8%
